Assay results from different studies.
Every numbered part comes from another study and shows a few of its results, in no order.
Sequence of UniProt Q92985 (whole entry, unmodified, looked up): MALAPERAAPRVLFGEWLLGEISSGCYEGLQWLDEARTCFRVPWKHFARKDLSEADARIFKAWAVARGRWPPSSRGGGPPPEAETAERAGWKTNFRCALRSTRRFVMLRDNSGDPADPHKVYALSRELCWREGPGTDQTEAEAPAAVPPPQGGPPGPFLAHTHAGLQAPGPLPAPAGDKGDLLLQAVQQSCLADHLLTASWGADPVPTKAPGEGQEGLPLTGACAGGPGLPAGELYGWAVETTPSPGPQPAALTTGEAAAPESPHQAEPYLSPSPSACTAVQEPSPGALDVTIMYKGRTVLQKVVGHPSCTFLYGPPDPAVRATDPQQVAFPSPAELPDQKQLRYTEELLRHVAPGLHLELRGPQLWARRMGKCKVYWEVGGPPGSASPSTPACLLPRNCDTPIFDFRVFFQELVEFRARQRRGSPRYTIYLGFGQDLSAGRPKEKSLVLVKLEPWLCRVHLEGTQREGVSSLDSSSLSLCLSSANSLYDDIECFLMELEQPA

Sample 1
Target: Histone acetyltransferase KAT6A, winged helix 1, GST fusion (KAT6A, Homo sapiens, UniProt Q92794, residues 1-85)
Technique: protein binding microarray
Molecule type: double-stranded DNA, one strand shown
Matrix: in vitro
Concentration: not given
Notes: 8-mer, flanks averaged, mean of 2 arrays, mostly near background
Baseline: not given
Direction: higher = stronger binding
Residues (chain): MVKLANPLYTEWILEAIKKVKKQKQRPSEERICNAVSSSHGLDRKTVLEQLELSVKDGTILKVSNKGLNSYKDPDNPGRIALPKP
Sequence	E-score
ACTATACG	0.0994
AACACCAA	-0.246
TATCTTGA	-0.057

Mixed results
G3BP1 full length: Ras GTPase-activating protein-binding protein 1, full length (G3BP1, Homo sapiens, UniProt Q13283)
Sequence of UniProt Q13283 (whole entry, looked up): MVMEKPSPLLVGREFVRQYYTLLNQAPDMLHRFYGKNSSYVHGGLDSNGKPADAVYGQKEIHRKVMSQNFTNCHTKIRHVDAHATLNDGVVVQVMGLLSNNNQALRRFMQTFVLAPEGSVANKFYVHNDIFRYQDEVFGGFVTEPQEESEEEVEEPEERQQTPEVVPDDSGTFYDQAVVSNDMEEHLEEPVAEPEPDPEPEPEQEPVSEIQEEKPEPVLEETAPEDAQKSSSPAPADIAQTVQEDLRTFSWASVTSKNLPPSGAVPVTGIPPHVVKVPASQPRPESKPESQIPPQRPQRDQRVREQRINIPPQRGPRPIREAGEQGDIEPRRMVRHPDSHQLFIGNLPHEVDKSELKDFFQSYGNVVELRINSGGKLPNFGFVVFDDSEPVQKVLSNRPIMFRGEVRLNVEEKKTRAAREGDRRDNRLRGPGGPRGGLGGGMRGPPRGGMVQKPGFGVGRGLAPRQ
Substance	target	test	test system	setting	how to read	endpoint	result
GGGAGUUCUACAGUCCGACGAUCAGUCCUGUGCUACACAUCGUAUGUACCGAAUCGGGUUUUUUUGGGAAAGGGAAAGGGAAAGUAUUAUGUUACGCCGUUCGGAUCUGCACUUGGAAUUCUCGGGUGUCAAGG	G3BP1 full length	RNA Bind-n-Seq	RNA, in vitro	200 nM, whole 134-nt RNA, ends assumed, with: 150 mM KCl	baseline: input library, higher = stronger binding	log2 enrichment	-0.24
GCCTAGCACTCACCCCTCCCCCTCAGACTGTGCTAGGTCTTGATTCGCTTGACGCTGCTG	Interferon regulatory factor 5, full length, phosphomimetic (IRF5, Homo sapiens, UniProt Q13568-2, residues 1-514, S451D/S453D/S456D/S462D)	protein-binding microarray	double-stranded DNA, one strand shown, in vitro	940 nM top, 60-bp whole probe, with: salmon DNA 0.4 mg/ml	baseline: random background probes, higher = stronger binding	fitted relative affinity	0.354 z-score
GGGAGUUCUACAGUCCGACGAUCAGUCCUGUGCUACACAUCGUAUGUACCGAAUCGGGAAAAAAAGGGUUUGGGUUUGGGAAAGUAUUAUGUUACGCCGUUCGGAUCUGCACUUGGAAUUCUCGGGUGUCAAGG	Fragile X messenger ribonucleoprotein 1, C-terminal low-complexity region (Fmr1, Mus musculus, UniProt P35922)	RNA Bind-n-Seq	RNA, in vitro	200 nM, whole 134-nt RNA, ends assumed, with: 150 mM KCl	baseline: input library, higher = stronger binding	log2 enrichment	0.197
GCCTAGCACTTAGAACTGGGGTTCCGATTAGTGCTAGTCTTGATTCGCTTGACGCTGCTG	Interferon regulatory factor 7, full length, phosphomimetic (IRF7, Homo sapiens, UniProt Q92985, residues 1-503, S471D/S472D/S475D/S476D/S477D/S483D/S484D/S487D)	protein-binding microarray	double-stranded DNA, one strand shown, in vitro	2200 nM top, 60-bp whole probe, with: salmon DNA 0.4 mg/ml	baseline: random background probes, higher = stronger binding	fitted relative affinity	0.192 z-score
PhoQ, residues 284 288 289 292 302 303 TAVSDG	PhoP, residues 12 14 15 18 19 NYFTV (Escherichia coli, UniProt P23836)	Sort-seq, refers to: YFP reporter	E. coli	PhoQ-PhoP variant library, with: 10 µM Mg2+	baseline: high Mg2+ state, higher = stronger signaling	fold induction	5.32
GGGAGUUCUACAGUCCGACGAUCAAGUCCUGUGCUACACAUCGUAUGUACCGAAUCGGGAAAAAGGGUUUUUGGGUGGGAAAGUAUUAUGUUACGCCGUUCGGAUCUGCACUUUGGAAUUCUCGGGUGUCAAGG	G3BP1 full length	RNA Bind-n-Seq	RNA, in vitro	200 nM, whole 134-nt RNA, ends assumed, with: 150 mM KCl	baseline: input library, higher = stronger binding	log2 enrichment	0.276

A few entries again (sample 1):
Sequence	E-score
ACTATACG	0.0994
